Published values from different studies.
Numbered parts are unrelated; each lists some results of a single study. Substitutions count along the parent as printed.

Sample 1
Target: TATA-box-binding protein 1 (TBP1, Arabidopsis thaliana, UniProt P28147, residues 1-200, full length assumed)
Method: protein-binding microarray
Molecule type: double-stranded DNA, one strand shown
Medium: in vitro
Tested at: not given
Notes: k-mer, scored over probes, only values ≥0.25
Reading: higher = stronger binding
Residues (chain): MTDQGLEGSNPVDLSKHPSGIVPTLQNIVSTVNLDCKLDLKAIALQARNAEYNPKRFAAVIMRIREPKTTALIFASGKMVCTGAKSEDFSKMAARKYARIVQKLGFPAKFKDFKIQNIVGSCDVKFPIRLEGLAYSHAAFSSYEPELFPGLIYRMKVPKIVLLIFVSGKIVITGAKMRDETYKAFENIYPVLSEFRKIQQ
`GAAATAC` gave an E-score of 0.281.
With `TTTAAAA` the E-score was 0.449.
`AAATTAG` gave an E-score of 0.252.
`AATATTC` gave an E-score of 0.355.
For `CCCTATA`, the E-score was 0.31.
`ATATTAA` has an E-score of 0.443.
With `ATAAAGA` the E-score was 0.37.
For `TATTTAA`, the E-score was 0.479.
`AATTAAA` gave an E-score of 0.415.
With `GGTTATA` the E-score was 0.415.
The E-score of `GAAATAA` is reported as 0.267.
With `AACTATA` the E-score was 0.368.
With `TTAAAAA` the E-score was 0.436.
With `ACTTTAA` the E-score was 0.369.
With `ATAAATG` the E-score was 0.437.
The E-score of `AAGTATA` is reported as 0.375.
The E-score of `CACTATA` is reported as 0.299.
For `CAAAATA`, the E-score was 0.278.

Sample 2
Target: CCNA1, cyclin fold, Cln2 fusion (human)
Method: yeast growth competition, sequencing
Medium: yeast
Notes: weak parent motif
Reference: not given
Reading: higher = stronger binding
Parent: PKN2 docking peptide (human); VSAVRKLDFSDTM
For `R5I`, “normalised enrichment score” read 0.105.
`D8P` — result for “normalised enrichment score”: 0.209.
`T12F` — result for “normalised enrichment score”: 1.39.
`S2Q` — result for “normalised enrichment score”: 1.03.
`A3W` — result for “normalised enrichment score”: 0.174.
Under “normalised enrichment score”, `D8I` is recorded as 0.105.
Under “normalised enrichment score”, `F9G` is recorded as 0.48.
For `D8V`, “normalised enrichment score” read 0.506.
`L7K`: “normalised enrichment score” 0.0746.
For `A3I`, “normalised enrichment score” read 1.27.
For `S2E`, “normalised enrichment score” read 0.012.
`S2D` — result for “normalised enrichment score”: 0.351.
`D11Y` — result for “normalised enrichment score”: 0.564.
`L7W`: “normalised enrichment score” -0.0067.
For `K6G`, “normalised enrichment score” read 0.163.
`L7Y` — result for “normalised enrichment score”: 0.0062.
`V4Y` — result for “normalised enrichment score”: 0.9.
`D8H` — result for “normalised enrichment score”: 0.397.
Under “normalised enrichment score”, `T12I` is recorded as 0.713.
`T12A` — result for “normalised enrichment score”: 0.999.
`R5E`: “normalised enrichment score” 0.119.
For `R5C`, “normalised enrichment score” read 0.109.
`T12K` — result for “normalised enrichment score”: 0.828.
`T12P`: “normalised enrichment score” 0.791.
Under “normalised enrichment score”, `V4S` is recorded as 1.21.

Sample 3
Target: Fragile X messenger ribonucleoprotein 1, C-terminal low-complexity region (Fmr1, Mus musculus, UniProt P35922)
Method: RNA Bind-n-Seq
Molecule type: RNA
Medium: in vitro
Tested at: 200 nM
Notes: whole 134-nt RNA, ends assumed
With: 150 mM LiCl
Reference: input library
Reading: higher = stronger binding
Library: 7-deaza-guanosine replaces G
For `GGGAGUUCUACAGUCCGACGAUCUGGGAGGUGGAUUUUGUUUAUUUUUUUAGCUCAUUUCCAGGGGUGGGAAUUUUUUGUUAAUAUGUGUCAUGAAUAAAGUUGUUUUUGAAAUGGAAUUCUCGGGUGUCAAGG`, the log2 enrichment was -0.517.
The log2 enrichment of `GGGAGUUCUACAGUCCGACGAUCGCAGGAAGUAAAAACAAAUGGAAAUGCUUCGGAUAGUGGCAGGGGUGGGGGUUGCUAAGGAAAGGGUGGGAUGGCAGUGGGUAAAGAGUUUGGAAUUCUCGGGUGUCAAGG` is reported as 1.62.
`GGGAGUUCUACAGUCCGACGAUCUGAUCAGCAAAGCCAAGAUGAGCCUUUGAGAAGCAGAAAAGUGUUUGUGGGGCGCUGUACAGAGGACAUGACUGAGGAUGAGCUGCGGGAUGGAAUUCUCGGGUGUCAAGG` gave a log2 enrichment of -1.98.
For `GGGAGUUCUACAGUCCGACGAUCCCUCAAGUCCUGUGCUACACAUCGUAUGUACCGAAUCGGAGGAAAAAGGAGGAAAGUAUUAUGUUACGCCGUUCGGAUCUGCACUUCCAGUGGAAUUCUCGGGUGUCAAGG`, the log2 enrichment was -0.453.
The log2 enrichment of `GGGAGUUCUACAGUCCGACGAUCUGGGAGGUGGAUUUUGUUGAUUUUUUUAGCUCAUUUCCAGGGGUGGGAAUUUUUUUUUAAUAUGUGUCAUGAAUAAAGUUGUUUUUGAAAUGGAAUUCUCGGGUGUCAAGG` is reported as 0.293.
With `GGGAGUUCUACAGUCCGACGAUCUCAAGUCCUGUGCUACACAUCGUAUGUACCGAAUCGGGUGGGAGGGAAAAAGGGAAAGUAUUAUGUUACGCCGUUCGGAUCUGCACUUCCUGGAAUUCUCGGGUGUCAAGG` the log2 enrichment was -0.587.
`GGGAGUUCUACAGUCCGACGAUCGUCCUGUGCUACACAUCGUAUGUACCGAAUCGGGUUUGGGUUUUUGGGUUUUUUUGGGAAAGUAUUAUGUUACGCCGUUCGGAUCUGCACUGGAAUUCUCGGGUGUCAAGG` has a log2 enrichment of -1.08.
For `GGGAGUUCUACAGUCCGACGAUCAAGUCCUGUGCUACACAUCGUAUGUACCGAAUCGGGUUUUUUUGGGUGGGAAAGGGAAAGUAUUAUGUUACGCCGUUCGGAUCUGCACUUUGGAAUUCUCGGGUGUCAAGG`, the log2 enrichment was -1.29.
`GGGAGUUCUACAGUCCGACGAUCCUCAAGUCCUGUGCUACACAUCGUAUGUACCGAAUCGGGGAAGGGAAGGAAGGGAAAGUAUUAUGUUACGCCGUUCGGAUCUGCACUUCCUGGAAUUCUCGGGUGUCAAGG` has a log2 enrichment of -0.751.
`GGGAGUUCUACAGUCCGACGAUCCAAGUCCUGUGCUACACAUCGUAUGUACCGAAUCGGGGUUUGGGUUUGGUUUGGGGAAAGUAUUAUGUUACGCCGUUCGGAUCUGCACUUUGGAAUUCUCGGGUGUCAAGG` has a log2 enrichment of -1.23.
With `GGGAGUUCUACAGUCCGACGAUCUUCCUCAAGUCCUGUGCUACACAUCGUAUGUACCGAAUCGGGAGGAGGAGGAAAGUAUUAUGUUACGCCGUUCGGAUCUGCACUUCCAGCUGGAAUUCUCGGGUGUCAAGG` the log2 enrichment was -2.52.

Sample 4
Target: RNA binding protein fox-1 homolog 2, RRM domain, GST-SBP tag (RBFOX2, Homo sapiens, UniProt O43251-10, residues 100-194)
Method: RNA Bind-n-Seq
Molecule type: RNA
Medium: in vitro
Tested at: 365 nM
Notes: natural RNA segment, single round, ends assumed
Reference: no-protein control
Reading: higher = stronger binding
Residues (chain): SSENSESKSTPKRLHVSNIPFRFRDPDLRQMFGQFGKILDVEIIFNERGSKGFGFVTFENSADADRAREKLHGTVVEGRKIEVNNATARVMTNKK
`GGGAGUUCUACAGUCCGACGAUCCAAGCUCAUACAGGGAACCACACCCAACACUUAGACAUGCGAACAAGCAGCCCCCAGCGAGGGUCUCCUUCGCCUUCAACCUCCUAGUGUCUGUUAGCAUCUUCCUUUUCUGGAAUUCUCGGGUGCCAA` — result for “RBNS enrichment (R)”: 0.439.
`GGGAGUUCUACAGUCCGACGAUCUACAUAAAGCUAUGGUUUAAUAGCUGUAUUUAUUAAAGUACCUAUGAAGGGUUUGGGGUAGCAUUCUGUUUUUUCUUUGCUUUUUCAUUUCUAGCAGAGGCAAGAAUACAUGGAAUUCUCGGGUGCCAA`: “RBNS enrichment (R)” 0.528.
Under “RBNS enrichment (R)”, `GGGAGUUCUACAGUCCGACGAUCUAUAUAUCUUUUACAGAGGCUAUUUUAAUCUUUAGUGCAUGGUUAACAGAAAAAAAUUAUACAAUUUUGACAAUAUUAUUUUUCGUAUCAGGUUGCUGUUUAAUUUUGGAUGGAAUUCUCGGGUGCCAA` is recorded as 3.46.
`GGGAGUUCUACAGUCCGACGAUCGGUUUCCCUCCCUGUUUUCCUACCUCUACGGCAAGCCCAAAGUGUCUUCCCGGGAGCCCAGCGCAGCCCCCGGCUCUUACCCAGGACCCCGCCCCGUGCUGAGCCUUCUGUGGAAUUCUCGGGUGCCAA`: “RBNS enrichment (R)” 0.51.
For `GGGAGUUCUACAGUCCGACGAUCUGUGACUGGUAUUUUCUCAUGAUGAAUCCUCUCAGGACAUGGCAGAGCUUGGCGAGUACAAAGGGAGAGGAAGACAUUUGAACUUUAGAACUUUGUUUCAGCGUGACUCUUGGAAUUCUCGGGUGCCAA`, “RBNS enrichment (R)” read 0.816.
`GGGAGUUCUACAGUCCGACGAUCGGAGGAUCCUGACUCUCCUCUUUCCCAAACCAAGAGUUCAAGACUUUGGCGCCUUUUCUGAACCACUUCUGGGGCCCAACCCCUCCCUAGAACGGGCCCUCCCCCAACCCUGGAAUUCUCGGGUGCCAA`: “RBNS enrichment (R)” 0.474.
`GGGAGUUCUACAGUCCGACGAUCAACCCAUGUGUGACAGUCAUGUGCACACAUGGGCGGGGGCUUUUAAAAACCUUUCAGGAAGUCAAUGAUUUCUGUGAUUGAUAUAAUUCUAAGGUGUCUGAGAGCAGGUAUGGAAUUCUCGGGUGCCAA` — result for “RBNS enrichment (R)”: 0.693.
For `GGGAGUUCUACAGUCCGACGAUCCCAGGCUUGACAUAGGUAUUAAGUCAAAAUUACAUGAAACCCAGUGGUAAAAAAGCCUCUGAAAGCUGUAACACCCUCAGUAAUAACAAAAGGGAUUUUUAUUUCACAGCUGGAAUUCUCGGGUGCCAA`, “RBNS enrichment (R)” read 0.512.
`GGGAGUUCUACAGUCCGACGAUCGUUCACAACUAAGAAUAAAUACCUAGAGCUACUUGUGAGUGAAUCAUUGGCUUCUAGAAAUCAGAUGCCCAGAUGAUCCAAGACUAGUUUGUUAUCUCAUCUGGAACCUAUGGAAUUCUCGGGUGCCAA`: “RBNS enrichment (R)” 0.283.
`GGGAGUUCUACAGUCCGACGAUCCACUGCAAGUUUUGAAGGAGUCAGUAGCCAUUAAACCUAAAUUUAAUUUAUUUUAUUAAAAUAACAUAAGGAACCAACUGUAUUGGCUCAAUAAAAACAAAAUUAAAACCUGGAAUUCUCGGGUGCCAA` — result for “RBNS enrichment (R)”: 0.729.
Under “RBNS enrichment (R)”, `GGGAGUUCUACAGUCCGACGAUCCUGCCCGCUGGGGACCAGUUCCCACGAGCCUGUCACACCCCAGUCCUGUGUUACAAUUUUUCGUUUGGUCUUAGGUCUUCCCAUGGCUCCCUCUCUCCUGGACUGGUUAUUGGAAUUCUCGGGUGCCAA` is recorded as 0.279.
For `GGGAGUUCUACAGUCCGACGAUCACUGAUGAACUAUAUAGACUGGACUCUUAACCUCUUAGUGCCUCAGUUUUUCCUUCGGGGUAUACUAUUUUAGAUACACCUACUUCACAGGAGUACUGGAGGGAUUUGCAUGGAAUUCUCGGGUGCCAA`, “RBNS enrichment (R)” read 3.79.

Sample 5
Target: Histone acetyltransferase KAT6A, winged helix 2, GST fusion (KAT6A, Homo sapiens, UniProt Q92794, residues 85-181)
Method: protein binding microarray
Molecule type: double-stranded DNA, one strand shown
Medium: in vitro
Tested at: not given
Notes: 8-mer, flanks averaged, mean of 2 arrays, mostly near background
Reference: not given
Reading: higher = stronger binding
Residues (chain): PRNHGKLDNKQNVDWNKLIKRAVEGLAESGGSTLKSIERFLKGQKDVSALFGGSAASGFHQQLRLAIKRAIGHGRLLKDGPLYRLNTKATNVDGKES
`AAGGACTG` gave an E-score of -0.0451.
With `ATGGATGG` the E-score was -0.113.
`ACGATTCC` has an E-score of -0.0961.
The E-score of `CAGCCAGA` is reported as 0.0845.
The E-score of `CTGTCTGC` is reported as 0.0534.
With `GAGGCGCC` the E-score was 0.132.
`CGCTATTC` gave an E-score of 0.0308.
The E-score of `AGTAAGAA` is reported as 0.15.
For `GTTAGGAA`, the E-score was -0.0965.
`AAAAGATG` has an E-score of -0.0217.
For `ATAACGTA`, the E-score was -0.125.
`ACACCGTA` gave an E-score of -0.25.
`AAGGTAAT` gave an E-score of 0.0297.
With `TACAAAGA` the E-score was 0.115.
For `GTCCTTGA`, the E-score was -0.0395.
For `CACATTGA`, the E-score was -0.152.
`CGCTGCCA` has an E-score of 0.0744.
`GCGAGAAA` has an E-score of 0.0458.

Excerpt of the above (sample 1):
`AAATTAG` gave an E-score of 0.252.
`GAAATAC` gave an E-score of 0.281.
With `ATAAAGA` the E-score was 0.37.
`ATATTAA` has an E-score of 0.443.
The E-score of `GAAATAA` is reported as 0.267.
For `TATTTAA`, the E-score was 0.479.
For `CCCTATA`, the E-score was 0.31.
With `AACTATA` the E-score was 0.368.
With `ACTTTAA` the E-score was 0.369.
With `ATAAATG` the E-score was 0.437.
